Measurements collected from several papers.
Values joined by “and” are separate records of one study, mostly repeats; a detail may differ. Numbers after ± are the reported error. ≈ marks a conversion by molar mass, not a printed value.
Sequence of UniProt P78368 (whole entry, looked up): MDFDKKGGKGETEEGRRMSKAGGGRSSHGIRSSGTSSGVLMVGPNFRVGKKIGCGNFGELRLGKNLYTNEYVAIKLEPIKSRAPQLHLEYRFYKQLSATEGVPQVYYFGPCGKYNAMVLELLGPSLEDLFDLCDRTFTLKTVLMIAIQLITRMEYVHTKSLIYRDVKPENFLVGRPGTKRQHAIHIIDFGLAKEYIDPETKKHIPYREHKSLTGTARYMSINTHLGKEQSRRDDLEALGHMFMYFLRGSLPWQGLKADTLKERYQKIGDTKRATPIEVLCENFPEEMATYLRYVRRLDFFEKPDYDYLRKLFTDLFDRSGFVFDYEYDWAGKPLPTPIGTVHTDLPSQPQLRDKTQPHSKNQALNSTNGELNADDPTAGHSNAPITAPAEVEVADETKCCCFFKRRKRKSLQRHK
Sequence of UniProt P51813 (whole entry, looked up): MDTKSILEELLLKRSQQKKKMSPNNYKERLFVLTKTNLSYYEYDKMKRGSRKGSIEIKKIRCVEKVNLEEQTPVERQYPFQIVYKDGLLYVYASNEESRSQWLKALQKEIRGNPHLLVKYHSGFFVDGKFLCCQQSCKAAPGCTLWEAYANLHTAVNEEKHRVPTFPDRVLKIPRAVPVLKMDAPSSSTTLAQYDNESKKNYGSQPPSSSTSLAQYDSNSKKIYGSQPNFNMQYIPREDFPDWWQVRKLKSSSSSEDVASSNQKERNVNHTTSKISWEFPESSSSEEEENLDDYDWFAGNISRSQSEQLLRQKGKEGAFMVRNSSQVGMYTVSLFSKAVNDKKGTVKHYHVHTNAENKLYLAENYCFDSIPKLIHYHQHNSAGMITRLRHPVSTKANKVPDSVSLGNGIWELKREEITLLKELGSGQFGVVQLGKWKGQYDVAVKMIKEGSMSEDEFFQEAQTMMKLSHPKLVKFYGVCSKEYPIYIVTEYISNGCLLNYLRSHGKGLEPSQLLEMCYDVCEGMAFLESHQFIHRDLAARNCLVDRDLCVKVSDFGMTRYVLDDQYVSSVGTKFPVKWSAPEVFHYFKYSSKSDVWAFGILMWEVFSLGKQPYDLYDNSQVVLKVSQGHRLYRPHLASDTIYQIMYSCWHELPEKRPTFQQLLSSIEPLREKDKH
Sequence of UniProt Q00534 (whole entry, looked up): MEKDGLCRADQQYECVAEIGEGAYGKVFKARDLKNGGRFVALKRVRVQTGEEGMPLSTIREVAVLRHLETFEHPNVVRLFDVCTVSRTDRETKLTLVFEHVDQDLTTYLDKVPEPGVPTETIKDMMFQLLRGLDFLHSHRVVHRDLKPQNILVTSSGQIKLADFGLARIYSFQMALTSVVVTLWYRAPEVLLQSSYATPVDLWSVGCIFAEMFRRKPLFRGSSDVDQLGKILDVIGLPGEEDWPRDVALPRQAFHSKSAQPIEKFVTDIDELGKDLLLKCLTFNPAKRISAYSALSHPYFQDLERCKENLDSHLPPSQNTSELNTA

The TGI of `CC(C)(C)C(=O)OCOP(=O)(OCOC(=O)C(C)(C)C)C1CCCN(O)C1=O` (stereo not drawn) is reported as 18.1 µM (786-0; cell growth).
`Nc1nc(Nc2ccc(Cl)cc2)nn1S(=O)(=O)c1ccc2ccccc2c1` has an EC50 of over 8.7 µM (dengue virus; viral replication; Huh-7, New Guinea C).
The inhibition of `O=C(c1cccc(-c2ccc3ncnc(Nc4ccc(OCc5cccc(F)c5)c(Cl)c4)c3c2)c1)N1CCCC1` is reported as 7% (Trypanosoma cruzi; intracellular amastigote growth; NIH 3T3, Tulahuen, β-galactosidase-expressing; 10 µM, 96 h).
`O=C(O)C(Cl)Cl.OCCN(CCO)CCO` gave an inhibition of 0% (Solanum nigrum; herbicidal activity; 15 mg/mL, 21 days, pre-emergence greenhouse).
`O=C1NC2(CC2)COc2ncc(F)cc2[C@H]2COCCN2c2ccn3ncc1c3n2` gave a reticulocytes of 2.78 ± 1.83% (Sprague-Dawley rat, female, blood; oral, 20 mg/kg/day, end of treatment, 4-week repeated-dose toxicity; reference: red blood cells).
With `[O-][N+]1=C(c2ccccc2)C2=NCCN2c2ccccc21` the MIC50 was 0.5 µg/mL (≈ 1.9 µM) (Clostridioides difficile; microbial growth).
`CC(C)C[C@H](NC(=O)[C@H](CCN)NC(=O)[C@H](CCN)NC(=O)[C@@H](Cc1ccccc1)NC(=O)[C@H](CC(C)C)NC(=O)[C@H](CCN)NC(=O)[C@H](CCN)NC(=O)[C@@H](CCN)NC(=O)CCSCCOC(=O)C(C)(C)C)C(N)=O` has an MBC of 128 µM (≈ 142 µg/mL) (Acinetobacter calcoaceticus; BHI agar spot plating; 24 h, 37 °C).
The relative abundance of `COc1ccccc1-c1n[nH]c2nc(N[C@H]3CC[C@H](NS(=O)(=O)CC(C)C)CC3)ncc12` is reported as 1.22 (bead binding, competition bead pull-down, refers to: LINJ.25.1220; Leishmania donovani extract; 10 µM; reference: vehicle).
The remaining activity of `O=C1NC(=O)c2c1c1cc(F)c[n+]3c1c1c2c2cc(O)ccc2[n]1[Ru-4]312([N]=C=S)[S+]3CC[S+]1CC[S+]2CC3` (stereo not drawn) is reported as 7% (Mitogen-activated protein kinase 1 (MAPK1, Homo sapiens, UniProt P28482); enzyme activity; 100 nM, human enzyme, added: 10 µM ATP; reference: untreated).
The EC50 of `CC(=O)CCC1C(=O)NC(C(C)C)C(=O)NC(Cc2cc(O)cc(F)c2)C(=O)N2CCCC(N2)C(=O)OC(C(C)=CC=CC(=O)N2CCCCO2)CC=CC=CC(O)C(C)C1O` (stereo not drawn) is reported as 0.014 ± 0.002 µM (Hepatitis C virus; viral replication; Huh7, Con1 replicon; 40% fetal bovine serum).
For `CC[C@H](C)[C@H](NC(=O)[C@H](CO)NC(=O)[C@H](Cc1ccc(O)cc1)NC(=O)[C@H](Cc1ccc(O)cc1)NC(=O)[C@H](CC(N)=O)NC(=O)CNC(=O)[C@H](CO)NC(=O)[C@H](Cc1ccc(O)cc1)NC(=O)[C@H](CO)NC(=O)[C@H](CO)NC(=O)[C@H](CC(N)=O)NC(=O)COCCOCCNC(=O)CN1CCN(CC(=O)O)CCN(CC(=O)O)CCN(CC(=O)O)CC1)C(=O)N[C@@H](CC(C)C)C(N)=O` [copper-64 labelled], the tissue uptake was 13.8 %ID/mL (dynamic PET; KPC mouse Ptf1a-CreER tdTomato, metastases; intravenous, dose not given, 1.4 min, 84 d after tamoxifen).
For `COc1ccccc1-c1n[nH]c2nc(NC3CCN(C(=O)Cc4ccc(F)cc4F)CC3)ncc12`, the relative abundance was 1.02 (bead binding, competition bead pull-down, refers to: LINJ.35.1190; Leishmania donovani extract; 10 µM; reference: vehicle).
`Cc1cc(C(=O)Nc2nc3cccc(C)c3n2[C@H]2CCCCN(C(=O)/C=C/CN(C)C)C2)ccn1` has a survival of 101% and 104% and 87.9% and 89.4% and 105% and 98.6% (Trypanosoma brucei brucei; 2T1 CLK1 C215S overexpressing; 0.00038 µM, 72 h).
With `CC(C)[C@H]1NC(=O)C[C@H]2/C=C/CCSSC[C@@H](NC1=O)C(=O)N[C@H](Cc1cccc3ccccc13)C(=O)NCC(=O)O2` the inhibition was 9% (Cyclin-dependent kinase 6, with cyclin D3 (CDK6, Homo sapiens, UniProt Q00534); enzyme activity, inhibitor; 10 µM).
`CC(C)C[C@H]1NC(=O)[C@@H](C)NC(=O)[C@H](CO)NC(=O)[C@@H](Cc2c(-c3ccc(-c4ccc5ccccc5c4)cc3)[nH]c3ccccc23)NC(=O)[C@@H](CO)NC(=O)[C@@H](C(C)C)NC(=O)[C@H](Cc2ccccc2)NC1=O` has an MIC90 of over 100 µM (Mycobacterium marinum).
`Cc1cc(Oc2nc(N3CC[C@@H](c4ccncc4)C3)ncc2F)[nH]n1` has an IC50 of 91.2 µM (bone cancer cell lines; cell proliferation; average over lines).
With `Cc1cc(Cl)cc([S+](C)[O-])c1NC(=O)c1cc(Br)nn1-c1ncccc1Cl` (stereo not drawn) the mortality was 3.3% (Spodoptera litura; leaf-dip; third instar larvae; 50 ppm, 24 h).
For `CC[C@H](C)[C@@H]1NC(=O)[C@H](CO)NC(=O)C(C)(CCCCN)NC(=O)[C@@H]2CSSC[C@@H](C(=O)N[C@@H](Cc3ccc(O)cc3)C(N)=O)NC(=O)[C@H](CCCCN)NC(=O)[C@@H]3CSSC[C@H](NC(=O)[C@H](CCCNC(=N)N)NC(=O)C(C)(CC(C)C)NC(=O)[C@H](CC(=O)O)NC(=O)[C@H](CC(=O)O)NC(=O)[C@H](CCC(=O)O)NC(=O)[C@H](CC(N)=O)NC(=O)[C@H](Cc4c[nH]c5ccccc45)NC(=O)C(C)(CC)NC(=O)CNC(=O)[C@H](CC(N)=O)NC(=O)[C@@H](NC(=O)CNC(=O)[C@H](Cc4ccccc4)NC(=O)CN)CSSC[C@H](NC(=O)[C@H](Cc4ccc(O)cc4)NC(=O)CNC(=O)CNC(=O)[C@H](CCCCN)NC(=O)[C@H](Cc4ccc(O)cc4)NC(=O)[C@H]4CCCN4C(=O)[C@@H]4CCCN4C1=O)C(=O)N[C@@H](C)C(=O)N[C@@H](CCCCN)C(=O)N1CCC[C@@H]1C(=O)NCC(=O)N[C@@H](Cc1ccccc1)C(=O)N[C@@H](C(C)C)C(=O)N3)C(=O)N[C@@H](Cc1c[nH]cn1)C(=O)NC(C)(C)C(=O)N[C@@H](Cc1c[nH]cn1)C(=O)N2` (stereo partly drawn), the MBC was 0.5 µM (≈ 2.23 µg/mL) (Streptococcus pneumoniae; BS-441; 24 h, 37 °C, 99.9% killing).
`CC1COC2=C1C(=O)C(=O)c1c2ccc2c1C(OC(=O)CNC(=O)C(N)CO)CCC2(C)C` (mixture of isomers): “inhibition zone diameter” 16.8 ± 0.8 mm (Cutibacterium acnes; 10 µmol/mL, 48 h, anaerobic, 10 µL on 6 mm disc).
With `CS(C)(=O)=Nc1ccc(-c2ccc(-c3nc4cc(O[C@@H]5CO[C@H]6[C@@H]5OC[C@H]6O)[nH]c4cc3F)cc2)cc1` the inhibition was -12% (Cytoplasmic tyrosine-protein kinase BMX (BMX, Homo sapiens, UniProt P51813); enzyme activity, inhibitor; 10 µM).
With `CC(C)C[C@H]1NC(=O)[C@H](CO)NC(=O)[C@@H](Cc2c(-c3ccc(-c4ccc5ccccc5c4)cc3)[nH]c3ccccc23)NC(=O)[C@@H](CO)NC(=O)[C@@H](C(C)C)NC(=O)[C@H](Cc2ccccc2)NC(=O)[C@@H](C(C)C)NC1=O` the MIC90 was 39.2 µM (≈ 40 µg/mL) (Mycobacterium marinum).
For `CC(C)C[C@H](NC(=O)[C@@H](N)CO)C(=O)N[C@@H](Cc1c[nH]c2ccccc12)C(=O)N[C@@H](CCC(=O)O)C(=O)N[C@@H](CC(N)=O)C(=O)N[C@@H](Cc1ccccc1)C(=O)N[C@@H](CCCCN)C(=O)N[C@@H](CC(N)=O)C(=O)N[C@@H](C)C(=O)NCC(=O)N[C@@H](CCCCN)C(N)=O`, “geometric mean MIC” read 256 µM (Gram-negative bacteria).
For `FC(F)(F)c1cccc(CNc2nc(NC3CCN(Cc4ccccc4)CC3)c3nc[nH]c3n2)c1`, “mRNA fold change” read 1.76 (Cryptococcus neoformans; RNA-seq, refers to: VRK1 (CNAG_06161); 48 µg/mL, 3 h; reference: untreated).
The inhibition of `CN(C)[C@H]1C[C@@]23CC[C@@]4(O2)C(=CC[C@]2(C)[C@@H](c5ccc6ccncc6c5)CC[C@H]24)C=C3[C@@H](O)[C@@H]1O` is reported as -3.8% (Casein kinase I isoform gamma-2 (CSNK1G2, Homo sapiens, UniProt P78368); ATP probe labelling, inhibitor, KiNativ profiling; 0.1 µM).
The mortality of `CN(C)c1nc(NCc2c(F)cccc2C(F)(F)F)c(/N=N/c2ccc(Cl)cc2)c(N(C)C)n1` is reported as 100% (Ostrinia furnacalis; leaf dipping; 500 mg/L, 96 h).
`CC[C@H](C)CCCCC(=O)N[C@@H](CCN)C(=O)N[C@H](C(=O)N[C@@H](CCN)C(=O)N[C@H]1CCNC(=O)[C@H]([C@@H](C)O)NC(=O)[C@H](CCN)NC(=O)[C@H](CCN)NC(=O)[C@H](CC(C)C)NC(=O)[C@@H](CC(C)C)NC(=O)[C@H](CCN)NC1=O)[C@@H](C)O`: “MIC fold change” 1.95 (Escherichia coli; daily serial passaging; ATCC 8739; highest sub-MIC, 32 days; reference: initial MIC).
Under “normalized viral replication”, `COc1ccc(Cn2c3cc(=O)n(Cc4cccc(Cl)n4)c(C)c3c(=O)n2-c2ccccn2)cc1` is recorded as 0 (human respiratory syncytial virus; recombinant reporter virus; concentration not given, scale 0 to 100, added: cytidine 100 µM).
For `CN(C)c1nc(NCc2ccc(F)cc2F)c(/N=N/c2ccc(Cl)cc2)c(N(C)C)n1`, the mortality was 43.3 ± 5.8% (Ostrinia furnacalis; leaf dipping; 50 mg/L, 96 h).
The inhibition of `CCOC(=O)C1(C)Oc2cc(F)ccc2N(C)C1=O` (stereo not drawn) is reported as 44.6 ± 1.58% (Setaria viridis; fresh weight, greenhouse postemergence; postemergence, 150 g ai/ha, 21 days).
`CC(C)[C@H]1NC(=O)[C@H](Cc2ccc(O)cc2)NC(=O)[C@@H](C(C)C)NC(=O)[C@@H](C)NC(=O)[C@H](CO)NC(=O)[C@@H](Cc2c(-c3ccc(-c4ccc(-c5ccccc5)cc4)cc3)[nH]c3ccccc23)NC(=O)[C@@H](CO)NC1=O` has an MIC90 of 39.2 µM (≈ 40 µg/mL) (Mycobacterium marinum).

Excerpt of the above:
The inhibition of `CN(C)[C@H]1C[C@@]23CC[C@@]4(O2)C(=CC[C@]2(C)[C@@H](c5ccc6ccncc6c5)CC[C@H]24)C=C3[C@@H](O)[C@@H]1O` is reported as -3.8% (Casein kinase I isoform gamma-2 (CSNK1G2, Homo sapiens, UniProt P78368); ATP probe labelling, inhibitor, KiNativ profiling; 0.1 µM).
The mortality of `CN(C)c1nc(NCc2c(F)cccc2C(F)(F)F)c(/N=N/c2ccc(Cl)cc2)c(N(C)C)n1` is reported as 100% (Ostrinia furnacalis; leaf dipping; 500 mg/L, 96 h).
`CC[C@H](C)CCCCC(=O)N[C@@H](CCN)C(=O)N[C@H](C(=O)N[C@@H](CCN)C(=O)N[C@H]1CCNC(=O)[C@H]([C@@H](C)O)NC(=O)[C@H](CCN)NC(=O)[C@H](CCN)NC(=O)[C@H](CC(C)C)NC(=O)[C@@H](CC(C)C)NC(=O)[C@H](CCN)NC1=O)[C@@H](C)O`: “MIC fold change” 1.95 (Escherichia coli; daily serial passaging; ATCC 8739; highest sub-MIC, 32 days; reference: initial MIC).
Under “normalized viral replication”, `COc1ccc(Cn2c3cc(=O)n(Cc4cccc(Cl)n4)c(C)c3c(=O)n2-c2ccccn2)cc1` is recorded as 0 (human respiratory syncytial virus; recombinant reporter virus; concentration not given, scale 0 to 100, added: cytidine 100 µM).
For `CN(C)c1nc(NCc2ccc(F)cc2F)c(/N=N/c2ccc(Cl)cc2)c(N(C)C)n1`, the mortality was 43.3 ± 5.8% (Ostrinia furnacalis; leaf dipping; 50 mg/L, 96 h).
